Experimental data pooled from the literature.
Compare with care: the assays were run in different laboratories. ± marks the error that the study gave.

Structure (SMILES) | test | test system | conditions | scale | quantity | result
CCCCC[C@H]1C(=O)N[C@H](C)C(=O)N(C)[C@@H](CCCCC)C(=O)N[C@H](C)C(=O)N(C)[C@@H](CCCCC)C(=O)N(C)[C@H](C)C(=O)N(C)[C@@H](CCCCC)C(=O)N(C)[C@H](C)C(=O)N1C | PAMPA, HPLC-UV | – | 500 µM, pH 7.4 | – | log Papp | -5.39 ± 0.03
N#[11C]c1ccc(-c2csc(NN=C3CCCC3)n2)cc1 | – | C57BL/6 mice, male, bladder | intravenous, 3 MBq, 15 min | – | radioactivity uptake | 16.4 ± 5.8 %ID/g
CCCCCCCCCCCCCCCC(=O)N[C@@H](CCC(=O)NCCOCCOCCC(=O)NCCOCCOCCC(=O)NCCCC[C@H](NC(=O)[C@H](CC(=O)O)NC(=O)[C@H](CC(C)C)NC(=O)[C@H](Cc1ccc(O)cc1)NC(=O)[C@H](CCCCN)NC(=O)[C@H](CO)NC(=O)[C@H](Cc1ccc(O)cc1)NC(=O)[C@H](CC(=O)O)NC(=O)[C@H](CO)NC(=O)[C@@H](NC(=O)[C@H](Cc1ccccc1)NC(=O)[C@@H](NC(=O)CNC(=O)[C@H](CCC(N)=O)NC(=O)[C@@H](CO)NC(=O)[C@@H](N)Cc1c[nH]cn1)[C@@H](C)O)[C@@H](C)O)C(=O)N[C@@H](CCCNC(=N)N)C(=O)N[C@@H](CCCNC(=N)N)C(=O)N[C@@H](C)C(=O)N[C@@H](CCC(N)=O)C(=O)N[C@@H](CC(=O)O)C(=O)N[C@@H](Cc1ccccc1)C(=O)N[C@H](C(=O)N[C@@H](CCC(N)=O)C(=O)N[C@@H](Cc1c[nH]c2ccccc12)C(=O)N[C@@H](CC(C)C)C(=O)N[C@@H](CC(C)C)C(=O)N[C@@H](CC(N)=O)C(=O)N[C@H](C(=O)NCC(=O)NCC(=O)N1CCC[C@H]1C(=O)N[C@@H](CO)C(=O)N[C@@H](CO)C(=O)NCC(=O)N[C@@H](C)C(=O)N1CCC[C@H]1C(=O)N1CCC[C@H]1C(=O)N1CCC[C@H]1C(=O)N[C@@H](CO)C(N)=O)[C@@H](C)O)C(C)C)C(=O)O | refers to: ALT | rhesus monkey, male | subcutaneous, 300 µg/kg once daily, 28 days | – | serum enzyme activity | 34.3 ± 6.6 U/L
CC(C)[C@H](NC(=O)[C@@H](NC(=O)[C@H](CCCNC(=N)N)NC(=O)[C@H](CCCNC(=N)N)NC(=O)[C@H](CCCNC(=N)N)NC(=O)[C@H](CCC(N)=O)NC(=O)[C@H](CCCNC(=N)N)NC(=O)[C@H](CCCNC(=N)N)NC(=O)[C@H](CCCCN)NC(=O)[C@H](CCCCN)NC(=O)[C@H](CCCNC(=N)N)NC(=O)CN)[C@@H](C)O)C(=O)N[C@H](C(=O)N[C@@H](CO)C(=O)N1CCC[C@H]1C(=O)O)[C@@H](C)O | – | ICR mice, female, liver | intranasal, 10 mg/kg daily, 4 weeks | – | organ weight | 1.35 ± 0.235 g
O=C1NC2(CC2)COc2ncc(F)cc2[C@H]2COCCN2c2ccn3ncc1c3n2 | – | Sprague-Dawley rat, female, kidneys | oral, 5 mg/kg/day, 4 weeks dosing, end of recovery | – | organ-to-body weight ratio | 0.645 ± 0.032%
CSCC[C@H](N)C(=O)N[C@@H](C)C(=O)N[C@@H](CCCNC(=N)N)C(=O)N[C@@H](CCCNC(=N)N)C(=O)N[C@@H](CC(=O)O)C(=O)N[C@@H](CCCCN)C(=O)N[C@H](C(=O)N[C@@H](CC(=O)O)C(=O)N[C@@H](Cc1ccccc1)C(=O)N[C@@H](C)C(=O)N[C@@H](CCCNC(=N)N)C(=O)N[C@@H](CCCNC(=N)N)C(=O)N[C@@H](CCCNC(=N)N)C(=O)N[C@@H](CCCNC(=N)N)C(=O)NCCCCCC(=O)NCCCCC(NC(=O)CCCCCNC(=O)[C@H](CCCNC(=N)N)NC(=O)[C@H](CCCNC(=N)N)NC(=O)[C@H](CCCNC(=N)N)NC(=O)[C@H](CCCNC(=N)N)NC(=O)[C@H](C)NC(=O)[C@H](Cc1ccccc1)NC(=O)[C@H](CC(=O)O)NC(=O)[C@@H](NC(=O)[C@H](CCCCN)NC(=O)[C@H](CC(=O)O)NC(=O)[C@H](CCCNC(=N)N)NC(=O)[C@H](CCCNC(=N)N)NC(=O)[C@H](C)NC(=O)[C@@H](N)CCSC)[C@@H](C)O)C(=O)NCCCCC(NC(=O)C(CCCCNC(=O)CCCCCNC(=O)[C@H](CCCNC(=N)N)NC(=O)[C@H](CCCNC(=N)N)NC(=O)[C@H](CCCNC(=N)N)NC(=O)[C@H](CCCNC(=N)N)NC(=O)[C@H](C)NC(=O)[C@H](Cc1ccccc1)NC(=O)[C@H](CC(=O)O)NC(=O)[C@@H](NC(=O)[C@H](CCCCN)NC(=O)[C@H](CC(=O)O)NC(=O)[C@H](CCCNC(=N)N)NC(=O)[C@H](CCCNC(=N)N)NC(=O)[C@H](C)NC(=O)[C@@H](N)CCSC)[C@@H](C)O)NC(=O)CCCCCNC(=O)[C@H](CCCNC(=N)N)NC(=O)[C@H](CCCNC(=N)N)NC(=O)[C@H](CCCNC(=N)N)NC(=O)[C@H](CCCNC(=N)N)NC(=O)[C@H](C)NC(=O)[C@H](Cc1ccccc1)NC(=O)[C@H](CC(=O)O)NC(=O)[C@@H](NC(=O)[C@H](CCCCN)NC(=O)[C@H](CC(=O)O)NC(=O)[C@H](CCCNC(=N)N)NC(=O)[C@H](CCCNC(=N)N)NC(=O)[C@H](C)NC(=O)[C@@H](N)CCSC)[C@@H](C)O)C(N)=O)[C@@H](C)O (some centres unmarked) | – | C57BL/6 mouse female, stomach | dose not given, 6 h | relative to: total | mean tissue distribution | 47.3%
CC[C@H](C)[C@H](NC(=O)[C@H](CCCCN)NC(=O)CNC(=O)[C@H](CC(C)C)NC(=O)[C@H](Cc1ccccc1)NC(=O)[C@H](CCCCN)NC(=O)[C@H](CO)NC(=O)[C@H](Cc1ccccc1)NC(=O)[C@H](Cc1c[nH]c2ccccc12)NC(=O)[C@H](CCC(N)=O)NC(=O)[C@@H](NC(=O)[C@H](Cc1ccccc1)NC(=O)CCCCCNC(=O)CN1CCN(CC(=O)O)CCN(CC(=O)O)CCN(CC(=O)O)CC1)C(C)C)C(=O)N[C@@H](CCC(=O)O)C(=O)N1CCC[C@H]1C(=O)N[C@@H](CC(=O)O)C(=O)N[C@H](C(=O)N[C@@H](CO)C(=O)N[C@@H](CCC(N)=O)C(=O)N[C@H](C(=O)N[C@@H](CCC(N)=O)C(=O)N[C@@H](CC(=O)O)C(=O)N1CCC[C@H]1C(=O)N[C@@H](CC(N)=O)C(=O)N[C@@H](CC(=O)O)C(=O)N[C@@H](CCC(N)=O)C(=O)N[C@@H](Cc1ccc(O)cc1)C(=O)N[C@@H](CCC(=O)O)C(=O)N1CCC[C@H]1C(=O)N[C@@H](Cc1ccccc1)C(=O)O)C(C)C)C(C)C [copper-64 labelled] | – | C57BL/6 mice, pancreas | added: LPS 0.1 mg/kg intratracheal | – | tissue uptake | 1.13 ± 0.07 %ID/g
C[C@H](NCc1ccc(-c2ccc(C(F)(F)F)cc2)cc1)C(N)=O | metabolic stability | mouse, liver microsomes | 1 µM, 30 min, pH 7.4 | – | compound remaining | 66%
C[C@H](O)[C@@H](NC(=O)[C@H]1CCCN1C(=O)[C@@H](CCCCN)NC(=O)[C@@H](CO)NC(=O)[C@@H](Cc1ccc(O)cc1)NC(=O)[C@@H](CC(N)=O)NC(=O)CCOCCOCCOCCNC(=O)CN1CCN(CC(=O)O)CCN(CC(=O)O)CCN(CC(=O)O)CC1)C(=O)N[C@H](CC(=O)O)C(=O)N[C@H](CCCNC(=N)N)C(=O)N[C@H](CCC(N)=O)C(=O)N[C@H](Cc1ccc(O)cc1)C(=O)N[C@H](Cc1c[nH]cn1)C(=O)N[C@H](Cc1ccccc1)C(N)=O [copper-64 labelled] | – | C57BL/6J mice, liver | intravenous, 1.85 MBq, 1 h, radiolabelled | – | tissue uptake | 1.29 ± 0.11 %ID/g
Cc1ccccc1-c1ccc(-c2nc(-c3ccc(CN(C)CCCC(=O)O)c([18F])c3)no2)cc1C(F)(F)F | – | rat, kidney | 1 h | – | tracer uptake | 0.79 %ID/g
CC[C@H](C)[C@H](NC(=O)[C@@H](Cc1c[nH]c2ccccc12)NC(=O)[C@@H]1CCCN1C(=O)[C@H](CCCCN)NC(=O)[C@H](CCCCN)NC(=O)CCNC(=O)CCNC(=O)CN1CCN(CC(=O)O)CCN(CC(=O)O)CCN(CC(=O)O)CC1)C(=O)N[C@@H](C[Si](C)(C)C)C(=O)O [gallium-68 labelled] | – | nude mouse HT-29 xenograft, muscle | 90 min | – | tissue uptake | 0.1 ± 0.07 %ID/g
C#Cc1c(F)ccc2cc(O)cc(-c3ncc4c(N5CC6CCC(C5)N6C(=O)OC(C)OC(=O)CCC5CCCC5)nc(OC[C@@]56CCCN5C[C@H](F)C6)nc4c3F)c12 (some centres unmarked) | refers to: prodrug | mouse whole blood | 1 µM | – | t1/2 | 4.81 min
CN1Cc2cc(Cl)ccc2-n2c(nnc2C2CCN(c3cccc([18F])n3)CC2)C1 | PET two-tissue compartment model | rhesus monkey, male, striatum | intravenous, dose not given, 70 min scan, baseline scan | – | total volume of distribution | 1.06 ± 0.3 mL/cm3
CC(C)NCCCn1c(Sc2cc3c(cc2I)OCO3)nc2c(N)ncnc21 | LC-MS/MS | patients with advanced solid tumours, plasma | above 180 mg/m^2, 24 h | – | plasma concentration | 0.8 µM
